Assay results of several laboratories.
Parts stem from different laboratories: compare values within a part only. Substitutions count along the parent as printed.

Set 1
Target: CCNE1, cyclin fold, Cln2 fusion (human)
Method: yeast growth competition, sequencing
Medium: yeast
Setting: weak parent motif
Relative to: not given
Reading: higher = stronger binding
Measurement: normalised enrichment score
Starting sequence: RRM2 docking peptide (human); SKTARRIFQEPTE
SKTARRIAQEPTE [F8A]: 0.0685
SKTARRAFQEPTE [I7A]: 0.0195
SKTARRIFQEPAE [T12A]: 0.598
SKTARRIFQEATE [P11A]: 0.0911
SKTARRIFQEPTA [E13A]: 0.681
SKTAARIFQEPTE [R5A]: 0.0681

Set 2
Target: ABI1, truncated, D143A, DHFR fusion (Arabidopsis thaliana)
Method: DHFR PCA, deep sequencing
Medium: yeast
Setting: methotrexate growth selection, single substitutions
With: (+)-ABA 200 µM
Relative to: wild-type fitted maximum
Reading: higher = stronger binding
Measurement: relative binding score
Starting sequence: PYL1, truncated, DHFR fusion (Arabidopsis thaliana); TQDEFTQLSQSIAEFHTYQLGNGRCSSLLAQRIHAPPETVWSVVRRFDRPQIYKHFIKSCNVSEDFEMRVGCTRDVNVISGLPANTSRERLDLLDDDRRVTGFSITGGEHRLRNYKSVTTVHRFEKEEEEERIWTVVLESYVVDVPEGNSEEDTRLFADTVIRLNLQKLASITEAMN; partner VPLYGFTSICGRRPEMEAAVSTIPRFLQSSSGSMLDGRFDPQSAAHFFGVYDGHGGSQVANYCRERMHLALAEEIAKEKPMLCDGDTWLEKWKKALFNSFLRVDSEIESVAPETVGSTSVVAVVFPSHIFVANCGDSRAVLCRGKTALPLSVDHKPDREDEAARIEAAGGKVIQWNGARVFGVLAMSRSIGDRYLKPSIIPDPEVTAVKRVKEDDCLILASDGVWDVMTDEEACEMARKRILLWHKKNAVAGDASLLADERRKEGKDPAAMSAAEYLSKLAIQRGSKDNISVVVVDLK
E147M: 89.9%
S27Y: 50.4%
V161I: 105%
D92C: 69.8%
R99I: 18.8%
T101A: 87.9%
E125S: 101%
T154V: 97.1%
S59R: 89.5%
V145A: 70.8%
V100N: 10.3%
D97F: 93%
E64Y: 96.5%
D92P: -8.77%
L138H: 47.8%
F66R: 89.5%
A158H: 45.6%
E64S: 98.9%
L94H: 105%
V43S: 47.9%
V136C: 91.1%
T6N: 99.4%
D159Y: 19.4%
R69H: 100%

Set 3
Target: Sal-like protein 4, full length isoform B (SALL4, Homo sapiens, UniProt Q9UJQ4-2, residues 1-616)
Method: universal PBM
Molecule type: double-stranded DNA, one strand shown
Medium: in vitro
Tested at: not given
Setting: 8-mer, flanks averaged, mean of replicates
Reading: higher = stronger binding
Measurement: E-score
Residues (chain): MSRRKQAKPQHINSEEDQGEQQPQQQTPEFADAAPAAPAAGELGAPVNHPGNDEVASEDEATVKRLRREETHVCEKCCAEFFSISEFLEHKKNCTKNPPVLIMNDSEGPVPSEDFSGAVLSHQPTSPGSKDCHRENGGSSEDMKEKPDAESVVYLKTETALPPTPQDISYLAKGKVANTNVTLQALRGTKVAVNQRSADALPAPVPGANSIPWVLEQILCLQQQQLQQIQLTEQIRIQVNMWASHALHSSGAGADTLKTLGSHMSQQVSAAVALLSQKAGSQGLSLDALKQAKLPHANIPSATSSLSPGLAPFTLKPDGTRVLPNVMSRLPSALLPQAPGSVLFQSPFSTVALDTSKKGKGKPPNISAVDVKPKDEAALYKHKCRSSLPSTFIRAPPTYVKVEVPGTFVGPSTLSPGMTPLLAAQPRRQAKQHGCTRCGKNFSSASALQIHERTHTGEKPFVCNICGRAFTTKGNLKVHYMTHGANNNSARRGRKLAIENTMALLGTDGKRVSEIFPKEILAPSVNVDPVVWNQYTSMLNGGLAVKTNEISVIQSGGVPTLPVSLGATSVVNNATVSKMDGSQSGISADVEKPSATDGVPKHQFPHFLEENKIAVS
AAGCTGAC: -0.00699
CTCATTTA: 0.174
ATGAAGAC: 0.116
GCTACACC: -0.122
ACAATTAT: 0.424
AAGTTTTA: 0.228
ATTGCGTG: -0.0565
ATCAAGCG: -0.00053
CCGTCGTC: -0.308
GCGACCGC: -0.244
GCTCTAAC: -0.182
CTCATTCC: 0.0421
AACGAGGC: -0.196
ATGGCCGC: -0.295
AACGCACG: 0.0482
CCGCTAAG: -0.0259
CGAGCCAA: -0.148

Set 4
Target: RNA binding protein fox-1 homolog 2, RRM domain, GST-SBP tag (RBFOX2, Homo sapiens, UniProt O43251-10, residues 100-194)
Method: RNA Bind-n-Seq
Molecule type: RNA
Medium: in vitro
Tested at: 365 nM
Setting: natural RNA segment, single round, ends assumed
Relative to: no-protein control
Reading: higher = stronger binding
Measurement: RBNS enrichment (R)
All sequences stand within: GGGAGUUCUACAGUCCGACGAUC … UGGAAUUCUCGGGUGCCAA
Target sequence (chain): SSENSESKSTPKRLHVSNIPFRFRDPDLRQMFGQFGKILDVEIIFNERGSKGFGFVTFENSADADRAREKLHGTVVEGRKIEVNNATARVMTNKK
CCUUUGAGCUAAACUAAAUUAAAAUUACAGUAUUUAAUAAUUCUUUGGGCAUUUUUAAGAGGUCUGAAUUUGUAUUUUUCUUCAUUUUUGAAACUUUACAUUUGUUGACU: 0.553
UGAAUGAAAGUCAUUGGUAUUUGGCUUUGUGGUUACAGUACUAAUUUUACUUUGCUGCUCAGUUUUGAAAGUGUGUGAGCUACAUAGGUCUCCCUGUAGGAAAUGUGAAA: 1.39
AGGCUUUCCUGGAGCAGGCCAGUGAGUGUAGACGUGUGUAAAGAUGUCGCCAGUUCUCACUGUCUGUCAGCUCACUGAGCUGCCCUUCAUCCAUGGUCCUUGAGCUCCAG: 0.248
CCCUAGCCAGGCUGUGGCUGUCCCUGGGCAUGCUGCAGUCCUCCUGUCCCUUCUCCCCAGUCAGUAUUACCCUUCGCGCCCAUAUUAUUUAGGAGGGCUUUAGGGGCUCC: 0.445
CAAUUAGUCCAUACAUCCAUAAGCCUGAUGAGUUGAAAUUGCAGUUUGAGAAGUGAAUUAACCUUACAUCCCUUUGUUCAGAUACCUUAAAAGUUACUUUAUUUAAAAGC: 0.781
UGAAUAAAGAACUAAGUAAUAUGGGAAAUGCAGCAAUUUCUGGACUAGCUGAGCCGAUUCCUUCCUGUGAGCACACUGUAAGCUUUCAAGUUCUCUGGGCAGGAAUUACA: 0.416
AAAAUGGUGGCUUCAGCUCCAGCCCCUUUCCAAAAUUUUUCAACCCCACCCUGUUUGGAUUUUUAAUUAAAAACUAGUAGUUCUCUUGGUGUUAAAACACUUCUGUCCUG: 0.845
UCUUUGCUGGUUUACUCUAGGACUUCAAAGUUUGUCUGGGAUUUUUUUAUUAAAAAAAAUUGUCUUUGAGAGUUGAGCUGGCACAGUAUUCUGUCCUAUAGAUUACUGGU: 0.877

Set 5
Target: CREB3L4, bZIP domain (human)
Method: DHFR protein complementation
Medium: yeast
Setting: single substitutions, most at no-binding floor
Relative to: wild-type JUN-FOS pair
Reading: higher = stronger binding
Measurement: binding fitness
Starting sequence: JUN, bZIP domain (human); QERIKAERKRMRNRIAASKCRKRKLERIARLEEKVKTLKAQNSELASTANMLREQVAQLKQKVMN; partner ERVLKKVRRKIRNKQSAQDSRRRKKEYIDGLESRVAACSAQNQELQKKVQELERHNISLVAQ
E33M: -1.55 natural log
A49L: -1.47 natural log
K36G: -1.43 natural log
R30M: -1.49 natural log
R53V: -1.57 natural log
L38C: -1.56 natural log
A46I: -1.4 natural log
L45D: -1.42 natural log
K34A: -1.35 natural log
L45P: -1.56 natural log
E44R: -1.39 natural log
E32S: -1.38 natural log
L38E: -1.5 natural log
A57M: -1.6 natural log
E54L: -1.44 natural log
A40Y: -1.35 natural log
Q41L: -1.52 natural log
A57N: -1.25 natural log

Set 6
Target: CRIPT, C-terminal peptide
Method: DHFR complementation, deep sequencing
Medium: yeast
Setting: single substitutions, model-inferred values
Relative to: wild type
Reading: higher = weaker binding
Measurement: binding free energy change
Starting sequence: ERBIN, PDZ domain 1 (human); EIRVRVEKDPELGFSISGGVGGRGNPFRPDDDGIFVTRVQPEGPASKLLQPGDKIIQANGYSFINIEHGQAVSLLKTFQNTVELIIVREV; partner TKNYKQTSV
Q40G: 0.366 kcal/mol
D31V: 0.813 kcal/mol
N65M: 0.12 kcal/mol
F27M: 1.1 kcal/mol
I86P: 1.26 kcal/mol
T77P: 0.962 kcal/mol
R88I: 0.996 kcal/mol
F14T: 0.501 kcal/mol
V20Y: -0.104 kcal/mol
G52I: 0.62 kcal/mol
Q79K: -0.0439 kcal/mol
F14Y: 0.76 kcal/mol
Q40S: 0.25 kcal/mol
V20F: -0.0973 kcal/mol
Q40Y: 0.433 kcal/mol

Other studies, line by line
PhoQ, residues 284 288 289 292 302 303 WVSSAF
fold induction (PhoP, residues 12 14 15 18 19 IQFRS (Escherichia coli, UniProt P23836); Sort-seq, item: YFP reporter; E. coli; PhoQ-PhoP variant library, with: 10 µM Mg2+; relative to: high Mg2+ state, higher = stronger signaling): 5.07

For quick reference, copied from above (set 3):
GCTACACC: -0.122
ACAATTAT: 0.424
AAGTTTTA: 0.228
ATTGCGTG: -0.0565
ATCAAGCG: -0.00053
CCGTCGTC: -0.308
GCGACCGC: -0.244
GCTCTAAC: -0.182
CTCATTCC: 0.0421
AACGAGGC: -0.196
ATGGCCGC: -0.295
AACGCACG: 0.0482
